{"data": "Results gathered from unrelated publications", "note": "A part holds a random share of what one study measured. Changes are numbered by the printed parent chain."}
{"data": "Set 1", "target": "RNA binding protein fox-1 homolog 2, RRM domain, GST-SBP tag (RBFOX2, Homo sapiens, UniProt O43251-10, residues 100-194)", "technique": "RNA Bind-n-Seq", "form": "RNA", "sample": "in vitro", "concentration": "365 nM", "notes": "natural RNA segment, single round, ends assumed", "reference": "no-protein control", "reading": "higher = stronger binding", "all sequences stand within": "GGGAGUUCUACAGUCCGACGAUC … UGGAAUUCUCGGGUGCCAA", "Residues (chain)": "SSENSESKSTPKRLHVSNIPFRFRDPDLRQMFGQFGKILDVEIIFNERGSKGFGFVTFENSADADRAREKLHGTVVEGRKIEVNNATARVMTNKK"}
{"Sequence": "CUGAACAUUUCCUAUAAAUGGAAUCAGACAUGGUCUUUUGUGUCUGGCUUCUUUCACUCAGUAAUGUUUCUGAAGUUCCUCCCUGUAGUGGCAUCUAUCAGUAAUUGCUU", "RBNS enrichment (R)": 0.278}
{"Sequence": "CUCCAAGGACUCUUGUCAGCUGUGUUGGAAGCCAAAGCCAGCUUAGUGGGACUUCCGCGUCUCUCCCUAGUCUUAUCCCCUUUGGAUGAUGGCAGAAACUUCAUGAACCA", "RBNS enrichment (R)": 0.274}
{"Sequence": "AUCUGGAGAGGUCAGAAUGGAACUACCUCAGUUGGCACAAACAGAUCAUGGCUCCUAUCAGUCUCAGAUUCCAGAUCUAGCAUUCCAGAUCUGAAUUUCAGAUUCAGAUC", "RBNS enrichment (R)": 0.422}
{"Sequence": "AAUGGUUUGUUAGUUGCCAUUACAACUUUGUCUGGGUAGAGUUUUUGAGUUUUUGCAGUUCAGUAUCCCUCUGUCUAUUCACACUUCGUGUUAGUGGUAACUCAGUUUGU", "RBNS enrichment (R)": 0.657}
{"Sequence": "AGGGCAGGAGAGAGUGGACAGCAAGACUGAGAAGAUGUGAACAAAUGAGAUUUAAUCCACCAAGGAGAAUUGGUUGGGUUUGUUUAGCCUCUAAAGUUAUAGAAAGAAUG", "RBNS enrichment (R)": 2.76}
{"Sequence": "UCCCCAUGGUUUCCAGCUCAAUCCACCCCUGACCCAUCUGUCAGCUUUUUCCCAGGGAGCCGUUUCAGGGGUUCUGGGCAGUAGGCUGGGCCUGGCCUCAGAACCUGGUG", "RBNS enrichment (R)": 0.32}
{"Sequence": "AUUACUUCUAAAGAAUCAUCAGUGUAUAGAUUAGAAGUGCUCAUUACCUGCAACUUUUAAAAAAAAUUCAGUUAUAGCUGCUUUUGAAGAGGUUUCCAUUUUUAUUUAAA", "RBNS enrichment (R)": 0.886}
{"Sequence": "GCCCCGCCCCUCCUGCCGGGGGAGGCCCAGGGACCGGAGCAUUUCUGCAAGGCCCUUGUGGGCACGAGAGUGCGGCCCUUGCUGCUGGAGAUCUGAGGUCACUGCUGUGA", "RBNS enrichment (R)": 0.59}
{"Sequence": "AAGCAAACAAAUUUAAGUUUUCUUGUAUUGAAAAUAACCUAUGAUUGUAUGUUUUGCAUUCCUAGAAGUAGGUUAACUGUGUUUUUAAAUUGUUAUAACUUCACACCUUU", "RBNS enrichment (R)": 0.607}
{"Sequence": "UGCGGCUUAUACAGUACCCUAACCUGCUACUAAUCACAGAGAAAAAUGUGAAGAAGGAGGAGAAGAGGAAGGCUAGAAGCCUGAGCAAGUGAGGGUAGAACCUUUUGGGA", "RBNS enrichment (R)": 0.575}
{"Sequence": "GGCUGCUUAGAAACCACGAGACACCACCUCACUUUCCUCUGGCCUCACUGUUUCUGCCAGUCACAUGCUCUUCCUGUAUGAGUGACACUGCCGUGCUUUCCUCCAGUUAU", "RBNS enrichment (R)": 0.412}
{"Sequence": "GGAUCCAGCUCCUUCCCCUUCGGGUCUGGGGUGCAGACAUGGCAAGGCUCAAGGCUGUGCAGGCACAUAGGCUGGUGGCCUUGGGCCUUGGGGCUCAGCCACAGCCUGAC", "RBNS enrichment (R)": 0.314}
{"data": "Set 2", "target": "RING finger protein unkempt homolog, zinc fingers 1-6, GST-SBP tag (UNK, Homo sapiens, UniProt Q9C0B0, residues 30-357)", "technique": "RNA Bind-n-Seq", "form": "RNA", "sample": "in vitro", "concentration": "not given", "notes": "RNA with constant flanks, human-mouse chimeric sites, ends assumed", "reference": "input RNA pool", "reading": "higher = stronger binding", "all sequences stand within": "GGGAGUUCUACAGUCCGACGAUC … CAACAGAGGAUUGAGCAUCA", "Construct (chain)": "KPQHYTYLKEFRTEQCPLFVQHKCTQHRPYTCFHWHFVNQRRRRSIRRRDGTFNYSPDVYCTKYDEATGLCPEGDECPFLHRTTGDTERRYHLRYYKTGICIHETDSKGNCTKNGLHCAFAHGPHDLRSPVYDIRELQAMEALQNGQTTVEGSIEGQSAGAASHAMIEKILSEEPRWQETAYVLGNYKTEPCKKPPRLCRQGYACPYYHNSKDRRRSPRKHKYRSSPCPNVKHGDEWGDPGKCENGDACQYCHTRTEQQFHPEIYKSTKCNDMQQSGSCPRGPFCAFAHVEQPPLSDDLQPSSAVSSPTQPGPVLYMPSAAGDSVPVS"}
{"Sequence": "GUGUCCUGCUUUCAACUUAAAUCACUGAGGCAUCUCUACUGUUCUGUGAGCAUCAGGACUGUAGCGCUGUGUCACCACAGAUGAGAACAGAAGCAGCCUUUCUGUGGAGAGUGAGAAUGA", "bound/input enrichment": "0.141 ratio"}
{"Sequence": "ACAGUUAUAUUGUUGAGUUUCAUUUUCUUGUAUGUUUGUAGUGUCUGCUUGCCUGUGACUUCUGGUAAAAUAAAAUAAGCCUUUGAAUUAGCAUGCUCAUGGUAUUUAACAUUUUCUAAA", "bound/input enrichment": "0.806 ratio"}
{"Sequence": "UGUGCCCCACAAGAUCCUACCUGAGUGGCAGCUGAAGUUGACUCCCUCUCCUUGCCUGCCUAGUUUCCCACUGCCCCCCCAUCCCCCAGUGUCGGCUGAGAUGUUGCCUCUGCACGGUUC", "bound/input enrichment": "1.92 ratio"}
{"Sequence": "GGCCUGGGACCGUCCUGGGCUAGUACAAAUAGCGGCAGUGGAGGCUCGAGAGGAAAGUUUGUUAGUGAGGCAGUGGUUAGAGGCCGUAUGUACGCUCCCUUUACUCGAUAGAUGUGUUCU", "bound/input enrichment": "0.309 ratio"}
{"Sequence": "GCCACCAGAUCCCAGAAACAUGACCCUUGCUGCCUACAAAGAGAAGAUGAAGGAGCUCCCACUAGUGUCCUUGUUCUGCUCCUGCUUCCUGGCCGAUCCCCUGAAUAAAUCAUCCUACAA", "bound/input enrichment": "1.08 ratio"}
{"Sequence": "CUGGGCUUCUCUUUUCUUUCUUUCCUUUAGGAAAAGCCUAAAGAUUAGGUUGUAAGAAAAAUAGAAGCCAUGUUUCGAAGACCUGUGUUACAGGUAUUUCGUCAGUUUGUAAGACAUGAG", "bound/input enrichment": "0.272 ratio"}
{"Sequence": "ACCUCCCCCUCCCGCCUCACCCCACCCCCGCUUUUUGGAAAGUUUUUGGCGUUUCUUUUCCUUCCCCAGUUAGAAUUAUUACAGUUUCCCCCGCAAGGGUCUAUCGAAGGGCUUGACGGA", "bound/input enrichment": "9.97 ratio"}
{"Sequence": "CGCGUCCUCUCGCUGCUGCGGAGCCCGAGCUGGGAACCAUUCCGGGACUGGUACCCUGCACACAGCCGCCUCUUCGAUCAAGCUUUCGGGGUGCCCCGGUUGCCCGAGGAGUGGUCGCAG", "bound/input enrichment": "0.0939 ratio"}
{"Sequence": "UAAGUCCUGUGCCAGCAAUUUAUCCCAAAAGUUUUAAAUUCUGGACCAAUAGUGUUUGUUUCCUGAUUAUUGUAUCCAAUACUUUAUCUAGUAUGUAACUCACUCUUACUGAUAAUAAAA", "bound/input enrichment": "3.03 ratio"}
{"Sequence": "CUGGGUAUCAUCUCUCGUGCUGUUAGACACCUGUUCAAGAGUAUUGAUGAGAAAAAGACCUCAGCGAUUAAAAACGGGCUGCCCCCUCCUGAAUUCAAAGUGAAUGCCCAAUUCUUAGAG", "bound/input enrichment": "0.274 ratio"}
{"Sequence": "GAAUCCUACUCAGGCGGUCCCACAACAACCAAGCUCACAGCAGCAGCAUCUUAGUCACAGUAGGGUAGUUUUGGGGCAAUAUUGCCAGGGUUUUAUUCACAUGCAGGUUUGGAAAAUGUA", "bound/input enrichment": "1.92 ratio"}
{"data": "Set 3", "target": "Ras GTPase-activating protein-binding protein 1, full length (G3BP1, Homo sapiens, UniProt Q13283)", "technique": "RNA Bind-n-Seq", "form": "RNA", "sample": "in vitro", "concentration": "200 nM", "notes": "whole 134-nt RNA, ends assumed", "added": "150 mM KCl", "reference": "input library", "reading": "higher = stronger binding", "all sequences stand within": "GGGAGUUCUACAGUCCGACGAUC … UGGAAUUCUCGGGUGUCAAGG", "sequence of UniProt Q13283 (whole entry, looked up)": "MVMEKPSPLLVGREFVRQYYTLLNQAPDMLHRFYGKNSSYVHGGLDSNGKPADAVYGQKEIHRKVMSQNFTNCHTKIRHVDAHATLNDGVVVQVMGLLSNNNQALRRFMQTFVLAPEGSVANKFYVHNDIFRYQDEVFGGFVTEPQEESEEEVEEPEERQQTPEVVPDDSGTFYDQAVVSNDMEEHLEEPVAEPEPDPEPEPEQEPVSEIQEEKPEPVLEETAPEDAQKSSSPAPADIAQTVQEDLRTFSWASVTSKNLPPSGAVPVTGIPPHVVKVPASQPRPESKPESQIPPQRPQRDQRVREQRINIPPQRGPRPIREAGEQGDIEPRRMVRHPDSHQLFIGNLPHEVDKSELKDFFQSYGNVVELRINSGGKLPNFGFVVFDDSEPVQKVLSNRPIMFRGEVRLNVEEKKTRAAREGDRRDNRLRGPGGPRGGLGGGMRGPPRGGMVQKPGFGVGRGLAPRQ"}
{"Sequence": "UGGGAGGUGGAUUUUGUUUAUUUUUUUAGCUCAUUUCCAGGGGUGGGAUUUUUUUUUUAAUAUGUGUCAUGAAUAAAGUUGUUUUUGAAA", "log2 enrichment": 0.385}
{"Sequence": "CACAGACAACACGCACCCACACAGACACAGAGGGAAGGGGUUGGGAUGGGGACAGGGUGCACAGCAGGGCGGGGUAGGACCCCAGCCGCU", "log2 enrichment": 1.85}
{"Sequence": "GUCCUGUGCUACACAUCGUAUGUACCGAAUCGGGGUUUUUGGGGUUUUUGGUUUUUGGAAAGUAUUAUGUUACGCCGUUCGGAUCUGCAC", "log2 enrichment": -0.515}
{"Sequence": "UUCCCUGGUGUGAUUCCGUCCUGCGCGGUUGUUCUCUGGAGCAGCGUUCUUUUAUCUCCGUCCGCCUUCUCUCCUACCUAAGUGCGUGCC", "log2 enrichment": 0.613}
{"Sequence": "ACCAUGCAGGUGGGCAUCUUUGGGAAGUGGGGAAAGGGGGGGAUAGGGAGGGGGGUAACACUUUGGGAACAGGUGGUCCCAGGUCGUUUC", "log2 enrichment": 1.28}
{"Sequence": "ACCAUGCAGGUGGGCAUCUUUGGGAAGUAAAGCAAGGGGGGGAUAGGGAGGGGGGUAACACUUUGGGAACAGGUGGUCCCAGGUCGUUUC", "log2 enrichment": 1.15}
{"Sequence": "CUCAAGUCCUGUGCUACACAUCGUAUGUACCGAAUCGGGGCCGGGCCGGCCGGGAAAGUAUUAUGUUACGCCGUUCGGAUCUGCACUUCC", "log2 enrichment": -0.172}
{"Sequence": "ACCUUCACGGCAUGGUGCAACUCCCACCUGCGGAAGGCAGGCACACAGAUCGAGAACAUUGAUGAGGACUUCCGAGACGGGCUCAAGCUC", "log2 enrichment": 1.07}
{"Sequence": "AGUCCUGUGCUACACAUCGUAUGUACCGAAUCGGGGAAAAAGGGGUUUGGGGAGGGGAAAGUAUUAUGUUACGCCGUUCGGAUCUGCACU", "log2 enrichment": 0.425}
{"Sequence": "UCCUCAAGUCCUGUGCUACACAUCGUAUGUACCGAAUCGGUGGGUGGUGGGAAAGUAUUAUGUUACGCCGUUCGGAUCUGCACUUCCAGC", "log2 enrichment": -0.0849}
{"Sequence": "UGGGAGGUGGAUUUUGUUUAUUGUUUUAGCUCAUUUCCAGGGGUGGGAAUUUUUUUUUAAUAUGUGUCAUGAAUAAAGUUGUUUUUGAAA", "log2 enrichment": 0.215}
{"Sequence": "AGUCCUGUGCUACACAUCGUAUGUACCGAAUCGGCCCCGGGCCCCGGGGCCCCGGGGAAAGUAUUAUGUUACGCCGUUCGGAUCUGCACU", "log2 enrichment": -1.25}
{"Sequence": "GUCCUGUGCUACACAUCGUAUGUACCGAAUCGGAAAAAAAGGAAAAAAAGGAAAAAGGAAAGUAUUAUGUUACGCCGUUCGGAUCUGCAC", "log2 enrichment": -0.829}
{"Sequence": "CACAGACAACACGCACCCACACAGACACAGAGUGAAGGGGUUGGGAUGGGGACAGGGUGCACAGCAGGGCGGGGUAGGACCCCAGCCCCU", "log2 enrichment": 1.88}
{"data": "Set 4", "target": "CCNB1, cyclin fold, Cln2 fusion (human)", "technique": "yeast growth competition, sequencing", "sample": "yeast", "notes": "weak parent motif", "reference": "not given", "reading": "higher = stronger binding", "starting sequence": "SGO1 docking peptide (human); PLAKRALKYTDEK"}
{"Substitution": "L2A", "normalised enrichment score": 0.348}
{"Substitution": "K4A", "normalised enrichment score": 0.272}
{"Substitution": "P1A", "normalised enrichment score": 0.292}
{"Substitution": "R5A", "normalised enrichment score": 0.04}
{"Substitution": "D11A", "normalised enrichment score": 0.14}
{"Substitution": "K13A", "normalised enrichment score": 0.0171}
